Results gathered from unrelated publications.
Lines come from different studies, so protocols differ. Numbers after ± are the reported error.

O=C(O)c1ccc(/C=C2\Oc3cc(O)ccc3C2=O)cc1 — IC50 (PC-9; cell growth or viability, MTT; 72 h): 32.4 µM
Cc1sc2c(c1C)C(c1ccc(Cl)cc1)=N[C@@H](CC(=O)NCCCCCCCCC(=O)N1CCN(C(=O)c3cc(Cc4n[nH]c(=O)c5ccccc45)ccc3F)CC1)c1nnc(C)n1-2 — IC50 (SU-DHL-5; cell growth or viability, ATP luminescence; 72 h): 0.015 µM
Cc1c(C)n(-c2c(C(C)C)cccc2C(C)C)c(=[Se])n1-c1c(C(C)C)cccc1C(C)C.[Cl][Au] — IC50 (H157 spheroids; acid phosphatase; 72 h, 3D spheroid): 6.4 ± 0.1 µM
Cc1ccc(C(=O)C2Sc3nnc(-n4nc(C)cc4C)n3NC2c2ccc(Cl)cc2)cc1 (racemic) — IC50 (Z-138; cell growth or viability, imaging; 72 h): > 100 µM
CC(C)c1cccc(C(C)C)c1N1CCN(c2c(C(C)C)cccc2C(C)C)C1=[Se].[Cl][Ag] — IC50 (A2780 ADR; MTT; 72 h): 0.3 ± 0.04 µM
CCC(C(=O)O)C1CCC(C)C(C(C)C(O)C(C)C(=O)C(CC)C2OC3(C=CC(NCc4cn(CCCO)nn4)C4(CCC(C)(C5CCC(O)(CC)C(C)O5)O4)O3)C(C)CC2C)O1 (stereo not drawn) — IC50 (HMLER CD24low/CD44high; cell proliferation; 72 h): 8.83 ± 1.1 µM
COc1ccc(-c2cc(=O)c3c(O)cc(O[C@@H]4O[C@H](CO)[C@@H](O)[C@H](O)[C@H]4O)cc3o2)cc1OC — IC50 (MDA-MB-231-pcDNA breast cancer; cytotoxicity, resazurin reduction; 72 h): > 100 µM
C/C1=C\CC[C@@]2(C)O[C@H]2[C@H]2OC(=O)[C@@H](CSC(=S)N(C)c3cccnc3)[C@@H]2CC1 — IC50 (KG-1a; cell growth or viability, MTT; 72 h): 9.3 µM
CCCC/C=N/NC(=O)c1cc2cc(Nc3nccc(-c4cccnc4)n3)ccc2[nH]1 — IC50 (MCF-10A, LO2; cell growth, MTT; normal cell lines as group): > 50 µM
COC(=O)[C@@H]1[C@@H](OC)[C@H](OC(=O)c2cc(OC)c(OC)c(OC)c2)C[C@@H]2CN3CC[C@]4(O[C@@H]3C(=O)[C@@H]21)C(=O)Nc1cc(OC)ccc14 — IC50 (SU-DHL-4; cell growth or viability, trypan blue; 72 h): 2.93 µM
Cc1cc2cc(C(=O)N(Cc3ccc(C(F)(F)F)cn3)[C@H](C)c3ncccn3)ccc2nc1N — IC50 (MTAP-deleted cancer cell lines; cell viability; 6 days): < 0.1 µM
Cl.[Cl][Ru-]1[S+]=C(NC2CCCCC2)N[N+]1=Cc1ccc(N(c2ccc(-c3ccsc3)cc2)c2ccc(-c3ccsc3)cc2)cc1.c1ccccc1 — IC50 (HeLa S3; cytotoxicity, MTT; 24 h): > 100 µM
CC(C)c1cccc(C(C)C)c1-n1c(Cl)c(Cl)n(-c2c(C(C)C)cccc2C(C)C)c1=[Se].[Cl][Au] — IC50 (LoVo-OXP (oxaliplatin-resistant); MTT; 72 h): 4.5 ± 0.9 µM
C=C1CC(OC(=O)C(C)(O)CCl)C2C(=C)C(=O)OC2C2C1CC(O)C2(O)CCl (stereo not drawn) — IC50 (HEKa; cell growth or viability): 0.5 µg/mL
Oc1ccc(-c2csc(Cc3ccccc3)n2)c(O)c1 — IC50 (patient-derived fibroblasts; cell growth, PrestoBlue; 72 h): 67.1 µM
COc1cc(-c2nc3ccc(C(=O)NCCCN4CCN(c5ccccn5)CC4)cc3n2C2CCC2)cc(OC)c1OC — IC50 (293 T-BRE-Luc; reporter gene, inhibitor; 6 h, with: BMP2-induced BMP2 5 ng/mL): 0.94 µM
C(=C/c1ccccc1)/c1ccccc1 — IC50 (KG-1a; cell growth or viability, ATP luminescence; 24 h): 85 µM
CC(=O)OC[C@H]1O[C@@H](NC(=O)NC(=O)[C@@H](C)Cc2ccc(C(C)C)cc2)[C@H](OC(C)=O)[C@@H](OC(C)=O)[C@@H]1OC(C)=O — IC50 (L1210; cell growth or viability; 48 h): 47 µM
CCCCCCCCc1cc(CN(Cc2ccccn2)Cc2ccccn2)c(O)c(CN(Cc2ccccn2)Cc2ccccn2)c1 — IC50 (CHO-K1; cytotoxicity; 72 h): 17 ± 2 µM
C=C(C)C(O)COc1c2occc2cc2ccc(=O)oc12 (stereo not drawn) — IC50 (L5178Y; cell growth or viability, MTT; 72 h): 46.5 µM
CNC(=O)C1CCN(c2ccccc2NC(=O)c2ccc(-c3cc(O)ccc3C)c(C)n2)CC1 — IC50 (A673; cell growth or viability, ATP luminescence; 72 h): 5.08 µM
CC(C)Cc1ccc(C(C)C(=O)[O][Pt]([NH2])([NH2])([Cl])([Cl])[O]C(=O)CCCc2ccccc2)cc1 (stereo not drawn) — IC50 (PSN1; cell growth or viability, MTT; 72 h): 0.92 µM
C/C1=C\CC[C@@]2(C)O[C@H]2[C@H]2OC(=O)[C@@H](CSC(=S)N3CCN(C)CC3)[C@@H]2CC1 — IC50 (KG-1a; cell growth or viability, MTT; 72 h): 6.9 µM
Cc1cc(C)c([N+]#[C][Pt-2]([Cl])([Cl])[C]#[N+]c2c(C)cc(C)cc2C)c(C)c1 — IC50 (OVCAR-3; cell growth or viability): 60 µM
CN(C)/C=C/C(=O)c1ccc2[nH]c3ncc(-c4ccc(N5CCN(C)CC5)cc4)cc3c2c1 — IC50 (parental Ba/F3 (IL-3 dependent); cell proliferation, [3H]-thymidine incorporation): 2.8 µM
N=C(N/N=C/c1ccccn1)N/N=C/c1ccccn1 — IC50 (PANC-1; cell growth or viability, crystal violet; 72 h): 4.8 µM
N#CCOc1ccc(-c2ccc3[nH]c4ncc(/C=C/c5ccccc5)cc4c3c2)cc1 — IC50 (parental Ba/F3 (IL-3 dependent); cell proliferation, [3H]-thymidine incorporation): > 10 µM
CC(C)(C)c1n[nH]cc1-c1nc2ccc3[nH]ncc3c2c2c1CCCC2 — IC50 (MV4-11; cell growth or viability, resazurin; 72 h): 0.484 µM
COc1cccc(-c2ccc(Nc3ccc(CN(C)C)cc3)c(OC)c2F)c1 — IC50 (SNU1; HTRF, measured: phospho-Akt): 14.5 µM
Cc1nn(-c2ccc(S(=O)(=O)N[C@@H](CO)CC(C)C)cc2)c2nn3nnnc3nc12 — IC50 (CCD-841CoN; cell growth or viability, MTT; 72 h): 1.12 µM
CC(C)=CCOc1ccc(-c2coc3cc4c(c(O)c3c2=O)C=CC(C)(C)O4)cc1 — IC50 (MDA-MB-231, Huh-7, KKU100, NHDF cells; cell viability, MTT; 24 h): > 100 µM
CC(=O)OC[C@H]1O[C@@H](NC(=O)CCCc2ccc3c(c2)CCCC3)[C@H](OC(C)=O)[C@@H](OC(C)=O)[C@@H]1OC(C)=O — IC50 (L1210; cell growth or viability; 48 h): 106 µM
Nc1ccn([C@@H]2O[C@H](CSSc3ccccn3)[C@@H](O)[C@H](F)[C@H]2O)c(=O)n1 — IC50 (L1210; cell growth or viability): > 500 µM
c1n[nH]cc1-c1nc2ccc3[nH]ncc3c2c2c1CCCC2 — IC50 (MV4-11; cell growth or viability, resazurin; 72 h): 0.0384 µM
N#Cc1c(-c2ccc(Cl)cc2)cc(-c2cccc3ccccc23)nc1Nc1ccc(Nc2nc(-c3cccc4ccccc34)cc(-c3ccc(Cl)cc3)c2C#N)cc1 — IC50 (RKOp27; cell growth or viability, MTT; 72 h): 0.725 µM
COc1ccc(O)c(-c2nc(-c3ccccc3)c(-c3ccccc3)n2-c2ccccc2)c1 — IC50 (human foreskin fibroblasts HFF; cell viability, colorimetric; 72 h): > 1000 µg/mL
COC(=O)[C@H]1[C@H]2C[C@H]3O[C@@]4(CCN3C[C@H]2C[C@@H](OC(=O)c2cc(OC)c(OC)c(OC)c2)[C@@H]1OC)C(=O)Nc1cc(OC)c(-c2ccccc2)cc14 — IC50 (SU-DHL-4; cell growth or viability, trypan blue; 72 h): 31.9 µM
CC(C)c1cccc(C(C)C)c1[N+]#[C][Pd-]([Cl])([Cl])=[C](Nc1ccc(CN[C](Nc2c(C(C)C)cccc2C(C)C)=[Au][Cl])cc1)Nc1c(C(C)C)cccc1C(C)C — IC50 (OVCAR-3; cell growth or viability): > 100 µM
Nc1ncnc2c1ncn2[C@@H]1O[C@H](CSSc2ccccn2)[C@@H](O)[C@H](F)[C@H]1O — IC50 (L1210; cell growth or viability): 238 µM
Cc1nc(-c2ccc(Cl)cc2)nc(N2CCC(C)(N)CC2)c1Cc1ccccc1 — IC50 (SNU1197 (KRAS G12D); cell viability, WST; 72 h): 7 ± 0.6 µM
S=C(S)NCc1cccnc1 — IC50 (KG-1a; cell growth or viability, MTT; 72 h): 2 µM
CC(C)c1cccc(C(C)C)c1-n1ccn(-c2c(C(C)C)cccc2C(C)C)c1=[Se].[Cl][Ag] — IC50 (A2780 ADR; MTT; 72 h): 0.3 ± 0.05 µM
